Assay results pooled from the literature.
A part holds a random share of what one study measured. Several values in a cell are separate wells, animals, samples, runs or records.
UniProt Q9H3Y6, sequence (whole entry, looked up): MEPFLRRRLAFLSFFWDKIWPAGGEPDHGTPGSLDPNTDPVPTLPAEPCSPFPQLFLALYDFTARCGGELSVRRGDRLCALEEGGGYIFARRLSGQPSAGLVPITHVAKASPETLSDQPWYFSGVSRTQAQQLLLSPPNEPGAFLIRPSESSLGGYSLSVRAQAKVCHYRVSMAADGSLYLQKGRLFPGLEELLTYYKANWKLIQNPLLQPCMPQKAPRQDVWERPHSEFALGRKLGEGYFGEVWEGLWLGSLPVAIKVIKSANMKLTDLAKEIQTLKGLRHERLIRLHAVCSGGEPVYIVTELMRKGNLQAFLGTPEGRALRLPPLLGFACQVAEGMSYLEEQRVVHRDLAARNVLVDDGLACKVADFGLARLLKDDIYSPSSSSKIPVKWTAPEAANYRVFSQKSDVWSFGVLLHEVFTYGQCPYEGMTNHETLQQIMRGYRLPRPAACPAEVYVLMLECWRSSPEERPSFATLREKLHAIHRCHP
UniProt P10721, sequence (whole entry, unmodified, looked up): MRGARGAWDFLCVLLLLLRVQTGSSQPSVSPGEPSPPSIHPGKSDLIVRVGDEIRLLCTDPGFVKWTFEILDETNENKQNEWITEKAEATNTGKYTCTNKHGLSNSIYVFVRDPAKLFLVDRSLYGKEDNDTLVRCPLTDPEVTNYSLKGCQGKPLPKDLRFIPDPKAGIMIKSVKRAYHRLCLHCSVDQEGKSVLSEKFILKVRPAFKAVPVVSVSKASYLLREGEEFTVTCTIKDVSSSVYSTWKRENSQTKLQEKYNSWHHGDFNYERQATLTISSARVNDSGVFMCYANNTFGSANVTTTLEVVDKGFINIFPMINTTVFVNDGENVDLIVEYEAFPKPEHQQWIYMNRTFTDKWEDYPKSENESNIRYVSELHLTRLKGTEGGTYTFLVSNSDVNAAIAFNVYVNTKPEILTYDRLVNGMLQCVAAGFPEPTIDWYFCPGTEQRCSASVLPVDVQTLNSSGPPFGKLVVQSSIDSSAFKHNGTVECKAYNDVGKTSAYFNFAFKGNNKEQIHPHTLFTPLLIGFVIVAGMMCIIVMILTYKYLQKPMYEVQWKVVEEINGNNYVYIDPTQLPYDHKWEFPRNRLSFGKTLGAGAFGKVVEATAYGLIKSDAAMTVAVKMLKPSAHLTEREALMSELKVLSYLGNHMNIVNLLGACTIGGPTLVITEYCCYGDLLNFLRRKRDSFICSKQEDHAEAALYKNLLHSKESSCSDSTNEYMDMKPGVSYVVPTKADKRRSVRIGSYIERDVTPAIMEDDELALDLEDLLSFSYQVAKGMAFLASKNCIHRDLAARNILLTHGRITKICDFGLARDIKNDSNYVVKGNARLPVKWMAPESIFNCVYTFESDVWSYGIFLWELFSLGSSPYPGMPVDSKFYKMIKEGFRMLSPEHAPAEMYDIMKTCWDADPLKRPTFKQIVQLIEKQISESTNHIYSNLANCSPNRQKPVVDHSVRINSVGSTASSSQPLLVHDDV
UniProt P0C264, sequence (whole entry, looked up): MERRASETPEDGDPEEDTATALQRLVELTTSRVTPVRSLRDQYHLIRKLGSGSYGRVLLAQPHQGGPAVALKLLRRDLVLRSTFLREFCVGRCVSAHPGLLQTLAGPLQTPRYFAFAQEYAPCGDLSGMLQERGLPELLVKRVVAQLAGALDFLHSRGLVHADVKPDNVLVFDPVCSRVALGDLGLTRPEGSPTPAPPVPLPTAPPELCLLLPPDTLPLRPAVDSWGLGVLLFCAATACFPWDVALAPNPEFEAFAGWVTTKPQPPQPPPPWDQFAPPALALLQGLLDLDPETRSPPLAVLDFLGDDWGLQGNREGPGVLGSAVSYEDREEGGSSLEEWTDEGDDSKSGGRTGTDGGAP
UniProt P27361, sequence (whole entry, looked up): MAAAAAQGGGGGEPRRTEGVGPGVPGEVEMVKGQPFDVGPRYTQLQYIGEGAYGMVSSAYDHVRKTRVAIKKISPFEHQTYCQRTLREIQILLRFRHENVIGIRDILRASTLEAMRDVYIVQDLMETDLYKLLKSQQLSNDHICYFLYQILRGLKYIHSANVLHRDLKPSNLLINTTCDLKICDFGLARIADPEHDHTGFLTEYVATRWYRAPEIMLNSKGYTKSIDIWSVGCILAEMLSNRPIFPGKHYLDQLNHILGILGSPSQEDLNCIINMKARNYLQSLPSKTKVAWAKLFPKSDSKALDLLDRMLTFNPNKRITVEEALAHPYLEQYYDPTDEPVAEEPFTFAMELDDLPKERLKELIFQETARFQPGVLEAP
UniProt P35968, sequence (whole entry, looked up): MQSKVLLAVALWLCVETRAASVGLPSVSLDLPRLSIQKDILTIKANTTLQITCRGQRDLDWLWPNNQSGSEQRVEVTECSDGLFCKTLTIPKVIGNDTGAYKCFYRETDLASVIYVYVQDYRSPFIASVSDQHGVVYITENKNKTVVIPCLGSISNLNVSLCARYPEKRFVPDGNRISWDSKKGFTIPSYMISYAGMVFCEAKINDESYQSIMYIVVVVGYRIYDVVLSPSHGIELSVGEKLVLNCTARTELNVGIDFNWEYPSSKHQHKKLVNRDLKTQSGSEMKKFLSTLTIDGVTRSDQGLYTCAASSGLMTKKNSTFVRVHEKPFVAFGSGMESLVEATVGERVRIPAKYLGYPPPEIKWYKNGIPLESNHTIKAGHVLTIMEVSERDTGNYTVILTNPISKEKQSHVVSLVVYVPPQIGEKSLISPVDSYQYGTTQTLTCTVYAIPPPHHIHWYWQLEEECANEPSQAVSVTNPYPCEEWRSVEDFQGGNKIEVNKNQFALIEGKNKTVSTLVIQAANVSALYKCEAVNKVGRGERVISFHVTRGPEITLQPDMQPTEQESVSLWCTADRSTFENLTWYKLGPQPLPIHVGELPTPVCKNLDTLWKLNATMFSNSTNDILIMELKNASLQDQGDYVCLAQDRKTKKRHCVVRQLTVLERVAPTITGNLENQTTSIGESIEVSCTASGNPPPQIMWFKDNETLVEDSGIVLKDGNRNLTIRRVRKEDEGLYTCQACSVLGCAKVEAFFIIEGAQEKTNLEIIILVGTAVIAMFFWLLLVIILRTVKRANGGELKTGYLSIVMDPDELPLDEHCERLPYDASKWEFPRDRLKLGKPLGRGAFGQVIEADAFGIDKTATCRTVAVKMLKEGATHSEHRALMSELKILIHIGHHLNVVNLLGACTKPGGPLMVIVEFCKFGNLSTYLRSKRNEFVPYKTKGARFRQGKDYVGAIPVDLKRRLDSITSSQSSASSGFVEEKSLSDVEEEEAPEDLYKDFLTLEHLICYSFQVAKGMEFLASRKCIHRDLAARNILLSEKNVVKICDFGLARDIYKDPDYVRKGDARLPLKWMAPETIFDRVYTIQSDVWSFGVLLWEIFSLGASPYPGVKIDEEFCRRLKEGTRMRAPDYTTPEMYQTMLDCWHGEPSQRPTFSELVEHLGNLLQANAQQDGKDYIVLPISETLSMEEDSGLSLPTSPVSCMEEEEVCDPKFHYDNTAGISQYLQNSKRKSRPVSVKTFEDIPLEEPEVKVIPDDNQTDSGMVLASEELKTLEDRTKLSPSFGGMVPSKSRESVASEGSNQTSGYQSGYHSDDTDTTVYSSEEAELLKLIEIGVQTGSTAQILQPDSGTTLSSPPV
UniProt P00519, sequence (whole entry, unmodified, looked up): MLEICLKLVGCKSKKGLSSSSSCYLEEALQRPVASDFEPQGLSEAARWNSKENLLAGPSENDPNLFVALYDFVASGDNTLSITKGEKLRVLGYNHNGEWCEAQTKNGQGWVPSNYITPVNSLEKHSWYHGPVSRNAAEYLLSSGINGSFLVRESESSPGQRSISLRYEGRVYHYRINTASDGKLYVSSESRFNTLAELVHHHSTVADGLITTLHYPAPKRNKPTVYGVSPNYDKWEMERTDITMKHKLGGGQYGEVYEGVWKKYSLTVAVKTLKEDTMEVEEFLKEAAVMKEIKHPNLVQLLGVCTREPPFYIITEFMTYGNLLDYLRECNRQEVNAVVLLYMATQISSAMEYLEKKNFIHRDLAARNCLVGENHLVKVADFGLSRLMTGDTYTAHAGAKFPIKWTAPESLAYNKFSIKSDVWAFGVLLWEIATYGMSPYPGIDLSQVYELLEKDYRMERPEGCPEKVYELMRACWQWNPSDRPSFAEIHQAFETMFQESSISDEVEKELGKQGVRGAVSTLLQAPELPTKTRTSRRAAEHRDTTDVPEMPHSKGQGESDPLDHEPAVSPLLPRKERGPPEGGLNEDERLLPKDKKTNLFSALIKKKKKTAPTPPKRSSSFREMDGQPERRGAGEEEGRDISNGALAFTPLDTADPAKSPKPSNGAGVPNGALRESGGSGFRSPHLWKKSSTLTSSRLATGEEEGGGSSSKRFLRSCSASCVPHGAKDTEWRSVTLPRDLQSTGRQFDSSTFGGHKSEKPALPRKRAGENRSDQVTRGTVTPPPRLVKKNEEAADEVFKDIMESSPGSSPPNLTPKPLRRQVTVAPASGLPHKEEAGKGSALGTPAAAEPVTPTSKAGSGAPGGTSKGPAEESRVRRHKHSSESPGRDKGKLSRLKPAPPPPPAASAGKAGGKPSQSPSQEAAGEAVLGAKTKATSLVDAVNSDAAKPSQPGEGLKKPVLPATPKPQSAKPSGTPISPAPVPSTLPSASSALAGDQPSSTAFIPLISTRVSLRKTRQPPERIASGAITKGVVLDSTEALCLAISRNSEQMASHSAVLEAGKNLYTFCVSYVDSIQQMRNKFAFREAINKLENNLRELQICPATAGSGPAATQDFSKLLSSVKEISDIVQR
UniProt P11309, sequence (whole entry, looked up): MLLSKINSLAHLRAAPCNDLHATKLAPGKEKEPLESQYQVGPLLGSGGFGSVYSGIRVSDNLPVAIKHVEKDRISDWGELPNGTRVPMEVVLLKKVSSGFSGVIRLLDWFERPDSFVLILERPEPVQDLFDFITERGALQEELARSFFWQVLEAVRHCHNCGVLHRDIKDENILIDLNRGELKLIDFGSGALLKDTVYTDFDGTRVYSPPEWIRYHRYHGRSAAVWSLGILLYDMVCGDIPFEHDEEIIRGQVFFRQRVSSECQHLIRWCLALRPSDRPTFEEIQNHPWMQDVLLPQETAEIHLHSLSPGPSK

Series 1
Method: PRP chromatography estimate
Matrix: 1,9-decadiene/PBS
pH: 7.4
Structure (SMILES)	logD
CC(C)C[C@@H]1NC(=O)[C@H](C)NC(=O)[C@@H](CC(C)C)NC(=O)[C@H](C)NC(=O)[C@@H](CCC(=O)N2CCCC2)NC(=O)[C@H](CC(C)C)NC(=O)[C@@H](CC(C)C)NC1=O	-1.68
CC(C)C[C@@H]1NC(=O)[C@H](C(C)C)NC(=O)[C@H](CCC(=O)N2CCCC2)NC(=O)[C@H](CCC(=O)N2CCCC2)NC(=O)[C@@H](Cc2cscn2)NC(=O)[C@H](CC(C)C)NC(=O)[C@@H](CC(C)C)NC1=O	-1.9
CC(C)C[C@@H]1NC(=O)[C@H](CC(C)C)NC(=O)[C@@H](C(C)C)NC(=O)[C@H](C(C)C)NC(=O)[C@H](C)NC(=O)[C@H](Cc2cscn2)NC(=O)[C@H](CCC(=O)N2CCCC2)NC1=O	-2.51
CC(C)C[C@@H]1NC(=O)[C@@H](C)NC(=O)[C@@H](CC(C)C)NC(=O)[C@H](C)NC(=O)[C@H](C(C)C)NC(=O)[C@H](CC(C)C)NC(=O)[C@@H](CC(C)C)NC1=O	-0.685
CC(C)C[C@@H]1NC(=O)[C@H](CC(C)C)NC(=O)[C@@H](CC(C)C)NC(=O)[C@H](C)NC(=O)[C@@H](Cc2cscn2)NC(=O)[C@H](C)NC(=O)[C@H](CCC(=O)N2CCCC2)NC1=O	-2.86
CC(C)C[C@@H]1NC(=O)[C@H](CC(C)C)NC(=O)[C@@H](CC(C)C)NC(=O)[C@H](Cc2cscn2)NC(=O)[C@@H](Cc2cscn2)NC(=O)[C@H](Cc2cscn2)NC(=O)[C@H](CCC(=O)N2CCCC2)NC1=O	-2.12
CC(C)C[C@@H]1NC(=O)[C@H](C)NC(=O)[C@@H](C(C)C)NC(=O)[C@H](C(C)C)NC(=O)[C@H](CC(C)C)NC(=O)[C@@H](CC(C)C)NC(=O)[C@H](CC(C)C)NC1=O	0.347
CC(C)C[C@@H]1NC(=O)[C@H](C(C)C)NC(=O)[C@H](Cc2cscn2)NC(=O)[C@H](CCC(=O)N2CCCC2)NC(=O)[C@@H](CCC(=O)N2CCCC2)NC(=O)[C@H](CC(C)C)NC(=O)[C@@H](CC(C)C)NC1=O	-1.96

Series 2
Cell line: mouse MPNST tumor cells
Method: high-content nuclear imaging
Refers to: cell number
Tested at: 10 µM
Time: 12 h
Notes: mean of 2 replicates
Reference: plate mean
Reading: higher = more cells
SMILES	nuclei count
Nc1nc(NC2CC2)c2ncn([C@H]3C=C[C@@H](CO)C3)c2n1	0.478 z-score and -0.314 z-score and 1.2 z-score
N#Cc1c[nH]c2c(C(=O)N3CCN(CCc4ccc(F)cc4)CC3)cccc12	0.072 z-score
CN(CCCN1c2ccccc2CCc2ccccc21)CC(=O)c1ccc(Cl)cc1	3.89 z-score
CC(C)(S)C(N)C(=O)O (racemic)	1.04 z-score
Cc1nn(C)c2nc(NNC(=O)Nc3cc(Cl)nc(Cl)c3)cc(C(C)C)c12	2.37 z-score
O=C(NCCN1CCC(n2c(=O)[nH]c3ccccc32)CC1)c1cc2cc(F)ccc2[nH]1	2.85 z-score

Series 3
Host: mouse
Matrix: microsomes or S9
Tested at: 2 µM
Time: 0.5 h
SMILES	remaining compound
C/C(=C\COc1ccc2ccc(=O)oc2c1)CC[C@H]1C(C)(C)[C@@H](O)CC[C@@]1(C)O	36.1%
Cc1c(-c2cc(-c3cnn(C)c3C)n(Cc3ccc(Cl)c(Cl)c3)n2)cnn1C	0.407%
CCOC(=O)c1ccc(NC2C=CC(=O)C2Nc2ccc(C(=O)OCC)cc2)cc1 (stereo not shown)	0.913%
COC(=O)c1c(C)[nH]c(C(=O)CN2CCCC2c2nc3ccccc3s2)c1C (stereo not shown)	0.758%
Fc1ccc(Oc2ccccc2CNc2nnco2)c(Cl)c1	0.0374%

Series 4
SMILES: CCS(=O)(=O)c1cc2cc(C[C@](O)(CC(C)(C)c3ccc(F)cc3C(N)=O)C(F)(F)F)[nH]c2cn1
Method: competition with immobilised ligand
Tested at: 1 µM
target	read-out	remaining binding [%]
Tyrosine-protein kinase ABL1, non-phosphorylated (ABL1, Homo sapiens, UniProt P00519, F317I)	binding	95
Wee1-like protein kinase 2 (WEE2, Homo sapiens, UniProt P0C1S8)	cell-free assay	100
cAMP-dependent protein kinase catalytic subunit alpha (PRKACA, Homo sapiens, UniProt P17612)	cell-free assay	100
Mitogen-activated protein kinase 10 (MAPK10, Homo sapiens, UniProt P53779)	cell-free assay	100
cAMP-dependent protein kinase catalytic subunit beta (PRKACB, Homo sapiens, UniProt P22694)	cell-free assay	100
Epidermal growth factor receptor (EGFR, Homo sapiens, UniProt P00533, G719S)	cell-free assay	100
Mitogen-activated protein kinase 3 (MAPK3, Homo sapiens, UniProt P27361)	cell-free assay	93
Insulin receptor-related protein (INSRR, Homo sapiens, UniProt P14616)	cell-free assay	100
Rhodopsin kinase GRK7 (GRK7, Homo sapiens, UniProt Q8WTQ7)	cell-free assay	100
Mitogen-activated protein kinase kinase kinase 1 (MAP3K1, Homo sapiens, UniProt Q13233)	cell-free assay	87
Mast/stem cell growth factor receptor Kit (KIT, Homo sapiens, UniProt P10721, T670I/V559D)	cell-free assay	100
Uncharacterized serine/threonine-protein kinase SBK3 (SBK3, Homo sapiens, UniProt P0C264)	cell-free assay	100
Tyrosine-protein kinase Srms (SRMS, Homo sapiens, UniProt Q9H3Y6)	cell-free assay	83
Serine/threonine-protein kinase pim-1 (PIM1, Homo sapiens, UniProt P11309)	cell-free assay	100
Vascular endothelial growth factor receptor 2 (KDR, Homo sapiens, UniProt P35968)	cell-free assay	83

For quick reference, copied from above (series 3):
SMILES	remaining compound
Cc1c(-c2cc(-c3cnn(C)c3C)n(Cc3ccc(Cl)c(Cl)c3)n2)cnn1C	0.407%
Fc1ccc(Oc2ccccc2CNc2nnco2)c(Cl)c1	0.0374%
C/C(=C\COc1ccc2ccc(=O)oc2c1)CC[C@H]1C(C)(C)[C@@H](O)CC[C@@]1(C)O	36.1%
CCOC(=O)c1ccc(NC2C=CC(=O)C2Nc2ccc(C(=O)OCC)cc2)cc1 (stereo not shown)	0.913%
COC(=O)c1c(C)[nH]c(C(=O)CN2CCCC2c2nc3ccccc3s2)c1C (stereo not shown)	0.758%
